{"data": "Measurements from different studies", "note": "Several values in a cell are separate wells, animals, samples, runs or records. ± marks the error that the study gave."}
{"SMILES": "CC[C@H](C)[C@H](NC(=O)[C@H](C)NC(=O)CNC(=O)[C@H](C)NC(=O)[C@H](CCCCN)NC(=O)[C@H](CO)NC(=O)[C@H](C)NC(=O)[C@H](CCSC)NC(=O)CN)C(=O)N[C@@H](C)C(=O)NCC(=O)N[C@@H](CCCCN)C(=O)N[C@H](C(=O)N[C@@H](C)C(=O)N[C@@H](CCCCN)C(=O)N[C@H](C(=O)N[C@@H](C)C(=O)N[C@@H](CC(C)C)C(=O)N[C@@H](CCCCN)C(=O)N[C@@H](C)C(=O)N[C@@H](CC(C)C)C(N)=O)C(C)C)[C@@H](C)CC", "tested on": "Escherichia coli", "system": "0370 wild type", "conditions": "at EC90, mean of ratios, together with: ampicillin", "measurement": "combination index", "result": 1.3}
{"SMILES": "CC(O)CN.O=C(O)C(Cl)Cl", "tested on": "Chenopodium album", "assay": "herbicidal activity", "conditions": "15 mg/mL, 21 days, pre-emergence greenhouse", "measurement": "inhibition", "result": "0%"}
{"SMILES": "[O-][N+]1=C(Cc2ccccc2)C2=NCCCN2c2ccccc21", "tested on": "Clostridioides difficile", "assay": "microbial growth", "measurement": "MIC50", "result": "16 µg/mL"}
{"SMILES": "CC[C@H](C)[C@@H]1NC(=O)[C@H](CO)NC(=O)[C@H](CCCCN)NC(=O)[C@@H]2CSSC[C@@H](C(=O)N[C@@H](Cc3ccc(O)cc3)C(N)=O)NC(=O)[C@H](CCCCN)NC(=O)[C@@H]3CSSC[C@H](NC(=O)[C@H](CCCNC(=N)N)NC(=O)[C@H](CC(C)C)NC(=O)[C@H](CC(=O)O)NC(=O)[C@H](CC(=O)O)NC(=O)[C@H](CCC(=O)O)NC(=O)[C@H](CC(N)=O)NC(=O)[C@H](Cc4c[nH]c5ccccc45)NC(=O)[C@@H]4CCCN4C(=O)CNC(=O)[C@H](CC(N)=O)NC(=O)[C@@H](NC(=O)CNC(=O)[C@H](Cc4ccccc4)NC(=O)CN)CSSC[C@H](NC(=O)[C@H](Cc4ccc(O)cc4)NC(=O)CNC(=O)CNC(=O)[C@H](CCCCN)NC(=O)[C@H](Cc4ccc(O)cc4)NC(=O)CNC(=O)[C@H](CCCCN)NC1=O)C(=O)N[C@@H](C)C(=O)N[C@@H](CCCCN)C(=O)NCC(=O)NCC(=O)N[C@@H](Cc1ccccc1)C(=O)N[C@@H](C(C)C)C(=O)N3)C(=O)N[C@@H](Cc1c[nH]cn1)C(=O)N[C@@H](CC(N)=O)C(=O)N[C@@H](Cc1c[nH]cn1)C(=O)N2", "tested on": "Streptococcus pneumoniae", "system": "BS-441", "conditions": "24 h, 37 °C, 99.9% killing", "measurement": "MBC", "result": "0.06 µM"}
{"SMILES": "CC(=O)CCC1C(=O)NC(C(C)C)C(=O)NC(Cc2cc(O)cc(F)c2)C(=O)N2CCCC(N2)C(=O)OC(C(C)=CC=CC(=O)N2CCCCO2)CC=CC=CC(O)C(C)C1O (stereo not drawn)", "tested on": "Hepatitis C virus", "assay": "viral replication", "system": "Huh7, Con1 replicon", "conditions": "10% fetal bovine serum", "measurement": "EC50", "result": "0.015 ± 0.002 µM"}
{"SMILES": "C[N+]1=C2C(c3ccc([N+](=O)[O-])cc3)=[N+]([O-])c3ccccc3N2CCC1", "tested on": "Clostridioides difficile", "assay": "microbial growth", "measurement": "MIC90", "result": "0.5 µg/mL"}
{"SMILES": "CCc1nn(C)c2nc(-c3ccc(C(=O)O)cc3)nc(NCc3ccccc3)c12", "tested on": "Cryptosporidium parvum", "system": "HCT-8", "conditions": "EC50, 6 h", "scale": "baseline: DMSO control", "measurement": "parasite number", "result": "87.2% and 93.9% and 75% and 59.1%"}
{"SMILES": "C#Cc1ccc(C[C@@H]2NC(=O)CSCCNC(=O)[C@H](C(C)(C)O)NC(=O)[C@H](CC(C)C)NC(=O)[C@H](CCC3CCCCC3)NC(=O)[C@H](CC(C)C)NC(=O)[C@H](C(C)C)NC(=O)[C@]3(C)CCCN3C(=O)[C@H](C(C)C)NC2=O)cc1", "tested on": "HIV-1", "assay": "viral replication", "system": "MT4", "scale": "baseline: cell EC50 over protease IC50", "measurement": "EC50/IC50 ratio", "result": 249}
{"SMILES": "CC[C@H](C)[C@H](NC(=O)[C@H](CCCCN)NC(=O)[C@H](CCCCN)NC(=O)[C@H](Cc1ccccc1)NC(=O)[C@H](Cc1ccccc1)NC(=O)[C@H](CCCCN)NC(=O)[C@H](CCCCN)NC(=O)[C@H](Cc1ccccc1)NC(=O)[C@H](CCCNC(=N)N)NC(=O)[C@@H](N)CCCCN)C(=O)N[C@@H](CCCCN)C(=O)N[C@@H](CCCCN)C(=O)N[C@@H](CO)C(=O)N[C@H](C(=O)N[C@@H](CCCCN)C(=O)N[C@@H](CCCCN)C(=O)N[C@@H](CCCNC(=N)N)C(=O)N[C@H](C(=O)N[C@@H](CCCCN)C(=O)N[C@@H](CCCCN)C(=O)N[C@@H](CC(C)C)C(=O)N[C@@H](Cc1ccccc1)C(=O)N[C@@H](CCCCN)C(=O)N[C@@H](CCCCN)C(=O)N1CCC[C@H]1C(=O)N[C@@H](CCCNC(=N)N)C(=O)N[C@H](C(=O)N[C@H](C(=O)N1CCC[C@H]1C(=O)N[C@H](C(=O)N[C@@H](CO)C(=O)N[C@H](C(=O)N1CCC[C@H]1C(=O)N[C@@H](Cc1ccccc1)C(=O)O)[C@@H](C)CC)[C@@H](C)CC)[C@@H](C)CC)C(C)C)C(C)C)C(C)C", "tested on": "Pseudomonas aeruginosa", "assay": "broth microdilution", "system": "P4 clinical isolate", "conditions": "20 h", "measurement": "MIC", "result": "4 µg/mL"}
{"SMILES": "CC[C@H](C)CCCCC(=O)N[C@@H](CCN)C(=O)N[C@H](C(=O)N[C@@H](CCN)C(=O)N[C@H]1CCNC(=O)[C@H]([C@@H](C)O)NC(=O)[C@H](CCN)NC(=O)[C@H](CCN)NC(=O)[C@H](CC(C)C)NC(=O)[C@@H](CC(C)C)NC(=O)[C@H](CCN)NC1=O)[C@@H](C)O", "tested on": "Escherichia coli", "assay": "daily serial passaging", "system": "ATCC 8739", "conditions": "highest sub-MIC, 46 days", "scale": "baseline: initial MIC", "measurement": "MIC fold change", "result": 4.42}
{"SMILES": "COc1ccc(Cn2c3cc(=O)n(Cc4cccc(Cl)n4)c(C)c3c(=O)n2-c2ccccn2)cc1", "tested on": "human respiratory syncytial virus", "system": "recombinant reporter virus", "conditions": "concentration not given, scale 0 to 100, together with: adenosine 1.2 µM", "measurement": "normalized viral replication", "result": 0}
{"SMILES": "CC(C)C[C@H]1NC(=O)[C@H](CO)NC(=O)[C@@H](Cc2c(-c3ccc(-c4ccc5ccccc5c4)cc3)[nH]c3ccccc23)NC(=O)[C@@H](CO)NC(=O)[C@@H](C(C)C)NC(=O)[C@H](Cc2ccccc2)NC(=O)[C@@H](C(C)C)NC1=O", "tested on": "Mycobacterium marinum", "measurement": "MIC90", "result": "39.2 µM"}
{"SMILES": "CCCCCCCC(=O)NCCCC[C@H](NC(=O)CCCCCCC)C(=O)N[C@@H](CCCCNC(=O)CCCCCCC)C(=O)NCC(=O)NCC(=O)NCC(=O)N[C@@H](CS)C(=O)N[C@@H](CCCNC(=N)N)C(=O)N[C@@H](CCCCN)C(=O)N1CCC[C@H]1C(=O)N[C@@H](CS)C(=O)N[C@@H](CCCNC(=N)N)C(=O)N[C@@H](CCCCN)C(=O)N1CCC[C@H]1C(N)=O", "tested on": "Candida", "conditions": "twelve fungal strains", "measurement": "geometric mean MIC", "result": "8 µM"}
{"SMILES": "FC(F)(F)c1cccc(CNc2nc(NC3CCN(Cc4ccccc4)CC3)c3nc[nH]c3n2)c1", "tested on": "Cryptococcus neoformans", "assay": "RNA-seq, refers to: CNAG_04335", "conditions": "48 µg/mL, 3 h", "scale": "baseline: untreated", "measurement": "mRNA fold change", "result": 1.25}
{"SMILES": "COc1ccc(Nc2ncnc3ccc(-c4ccc(S(=O)(=O)N5CCOCC5)cc4)cc23)cc1Cl", "tested on": "Trypanosoma cruzi", "assay": "intracellular amastigote growth, β-galactosidase CPRG", "system": "3T3, Tulahuen, β-galactosidase-expressing", "conditions": "10 µM, 96 h", "measurement": "inhibition", "result": "43%"}
{"SMILES": "CCOC(=O)C1(Cc2ccccc2C#N)Oc2cc(F)ccc2N(Cc2ccccc2C#N)C1=O (stereo not drawn)", "tested on": "Setaria viridis", "assay": "fresh weight, greenhouse postemergence", "conditions": "postemergence, 150 g ai/ha, 21 days", "measurement": "inhibition", "result": "46.39 ± 0.42%"}
{"SMILES": "CCCC(=O)OCCSCCC(=O)N[C@H](CCN)C(=O)N[C@@H](CCN)C(=O)N[C@@H](CCN)C(=O)N[C@@H](CC(C)C)C(=O)N[C@H](Cc1ccccc1)C(=O)N[C@@H](CCN)C(=O)N[C@@H](CCN)C(=O)N[C@@H](CC(C)C)C(N)=O", "tested on": "Acinetobacter calcoaceticus", "assay": "BHI agar spot plating", "conditions": "24 h, 37 °C", "measurement": "MBC", "result": "> 128 µM"}
{"SMILES": "O=c1n(CCNCCOS(=O)(=O)c2ccccc2)c(=O)n(S(=O)(=O)c2ccccc2)c(=O)n1S(=O)(=O)c1ccccc1", "tested on": "Candida tropicalis", "assay": "broth microdilution", "measurement": "MLC", "result": "64 ± 6 µg/mL"}
{"SMILES": "CC1COC2=C1C(=O)C(=O)c1c2ccc2c1C(OC(=O)CNC(=O)CN)CCC2(C)C (mixture of isomers)", "tested on": "Cutibacterium acnes", "conditions": "10 µmol/mL, 48 h, anaerobic, 10 µL on 6 mm disc", "measurement": "inhibition zone diameter", "result": "14.5 ± 0.9 mm"}
{"SMILES": "[O-][N+]1=C(c2ccccc2)C2=NCCCN2c2ncccc21", "tested on": "Clostridioides difficile", "assay": "microbial growth", "measurement": "MIC50", "result": "0.5 µg/mL"}
{"SMILES": "CCOC(=O)C1(Cc2cc(OC)cc(OC)c2)Oc2cc(F)ccc2N(Cc2cc(OC)cc(OC)c2)C1=O (stereo not drawn)", "tested on": "Setaria viridis", "assay": "fresh weight, greenhouse postemergence", "conditions": "postemergence, 150 g ai/ha, 21 days", "measurement": "inhibition", "result": "53.3 ± 1.94%"}
{"SMILES": "CN(C)c1nc(NCc2c(F)cccc2C(F)(F)F)c(/N=N/c2ccc(Cl)cc2)c(N(C)C)n1", "tested on": "Ostrinia furnacalis", "assay": "leaf dipping", "conditions": "200 mg/L, 96 h", "measurement": "mortality", "result": "85 ± 7.1%"}
{"SMILES": "CC(C)(C)OC(=O)N1CCN(S(=O)(=O)c2ccc(-c3ccc4ncnc(Nc5ccc(OCc6cccc(F)c6)c(Cl)c5)c4c3)cc2)CC1", "tested on": "Trypanosoma cruzi", "assay": "intracellular amastigote growth", "system": "NIH 3T3, Tulahuen, β-galactosidase-expressing", "conditions": "10 µM, 96 h", "measurement": "inhibition", "result": "5%"}
{"SMILES": "CN(C)c1nc(NCc2ccc(F)c(C(F)(F)F)c2)c(/N=N/c2ccc(Cl)cc2)c(N(C)C)n1", "tested on": "Ostrinia furnacalis", "assay": "leaf dipping", "conditions": "500 mg/L, 96 h", "measurement": "mortality", "result": "100%"}
{"SMILES": "CC(C)C[C@H](NC(=O)[C@@H](N)CO)C(=O)N[C@@H](Cc1c[nH]c2ccccc12)C(=O)N[C@@H](CCC(=O)O)C(=O)N[C@@H](CC(N)=O)C(=O)N[C@@H](Cc1ccccc1)C(=O)N[C@@H](CCCCN)C(=O)N[C@@H](CC(N)=O)C(=O)N[C@@H](C)C(=O)NCC(=O)N[C@@H](CCCCN)C(=O)N[C@@H](CCCCN)C(N)=O", "tested on": "Gram-positive bacteria", "measurement": "geometric mean MIC", "result": "256 µM"}
{"SMILES": "O=C1NC2(CC2)COc2ncc(F)cc2[C@H]2COCCN2c2ccn3ncc1c3n2", "system": "Sprague-Dawley rat, male, testes", "conditions": "oral, 10 mg/kg/day, 4 weeks dosing, end of recovery", "measurement": "organ-to-body weight ratio", "result": "0.648 ± 0.046%"}
{"SMILES": "CC(C)[C@@H](N)C(=O)N[C@H](CO)C(=O)N[C@H](Cc1c[nH]c2ccccc12)C(=O)N[C@@H](CO)C(=O)N[C@H](C)C(=O)N[C@@H](C(=O)N[C@@H](Cc1ccccc1)C(=O)O)C(C)C", "tested on": "Mycobacterium marinum", "measurement": "MIC90", "result": "> 100 µM"}
{"SMILES": "CN(C)c1nc(NCc2ccc3ccccc3c2)c(/N=N/c2ccc(Cl)cc2)c(N(C)C)n1", "tested on": "Ostrinia furnacalis", "assay": "leaf dipping", "conditions": "200 mg/L, 96 h", "measurement": "mortality", "result": "33.3 ± 5.8%"}
{"SMILES": "CC(C)[C@H]1NC(=O)[C@H](Cc2ccccc2)NC(=O)[C@@H](C(C)C)NC(=O)[C@@H](C)NC(=O)[C@H]([C@@H](C)O)NC(=O)[C@@H](Cc2c(-c3ccc(-c4ccc5ccccc5c4)cc3)[nH]c3ccccc23)NC(=O)[C@@H](CO)NC1=O", "tested on": "Mycobacterium marinum", "measurement": "MIC90", "result": "> 100 µM"}
{"SMILES": "Cc1cc(C(=O)Nc2nc3cccc(C)c3n2[C@H]2CCCCN(C(=O)/C=C/CN(C)C)C2)ccn1", "tested on": "Trypanosoma brucei", "system": "STIB795, mouse acute HAT model", "conditions": "oral, 2.5 mg/kg once daily for 4 days, day 5", "scale": "baseline: mice", "measurement": "survival", "result": "83.3%"}
